Results of several laboratories.
A part holds a random share of what one study measured. Changes are numbered by the printed parent chain.

Set 1
Target: RING finger protein unkempt homolog, zinc fingers 1-6, GST-SBP tag (UNK, Homo sapiens, UniProt Q9C0B0, residues 30-357)
UniProt Q9C0B0, sequence (30-357, looked up): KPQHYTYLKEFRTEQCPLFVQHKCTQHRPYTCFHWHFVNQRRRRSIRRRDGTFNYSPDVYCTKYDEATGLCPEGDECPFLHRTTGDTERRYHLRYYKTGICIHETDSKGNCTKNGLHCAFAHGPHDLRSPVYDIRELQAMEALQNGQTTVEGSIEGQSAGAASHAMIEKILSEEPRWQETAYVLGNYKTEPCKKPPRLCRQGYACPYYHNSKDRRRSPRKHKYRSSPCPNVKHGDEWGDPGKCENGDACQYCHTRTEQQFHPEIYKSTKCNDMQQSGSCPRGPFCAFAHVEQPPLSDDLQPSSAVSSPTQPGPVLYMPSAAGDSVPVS
Technique: RNA Bind-n-Seq
Form: RNA
Matrix: in vitro
Tested at: not given
Notes: RNA with constant flanks, human-mouse chimeric sites, ends assumed
Reference: input RNA pool
Direction: higher = stronger binding
Strand	bound/input enrichment [ratio]
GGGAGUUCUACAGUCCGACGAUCGGACAUCUUGUCAGGAUUAUUUCCCGUGUGAAACAAGUGAACACUCUGAUACACUUCAUCUGCUUGUACAUCUGUAUGAUAGAGAAAUGUAAAUAUGUUAAUCCAAGCAAUGUGUCACUUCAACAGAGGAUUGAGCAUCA	0.194
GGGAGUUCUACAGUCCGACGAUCUAUAUCACCAAUGUCCUACAAAAUCCUGACUUGGCUCUGAGAAUGGCUGUACGUAAUAACUUAGCCGGUGCUGAAGAACUCUUUGCCCGGAAAUUUAAUGCUCUCUUCGCCCAGGGAAACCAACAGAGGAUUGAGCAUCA	0.5
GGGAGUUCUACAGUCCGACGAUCUAUCCAACUUUCUUGCCACAUUUUGAAUUCCAAGACAUUAUUCCUCCAGAUGACUUCCUAACGAGUGAUGAAGAGCAAGAUUUGGUUUUAUUUGGAAGUUUGAGAGGACAAGUUGUUGGACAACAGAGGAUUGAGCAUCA	0.168
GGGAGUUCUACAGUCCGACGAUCGAAUCCUACUCAGGCGGAUUUUGCAACACCAAGCUCAAGUAGCAAUUUCCAUAGUCACAGUAGGGUAGUUUUGGGGCUCUGUGGCCAGGGUUUUAUUCACAUGCAGGUUUGGAAAAUGUACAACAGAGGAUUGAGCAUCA	0.83
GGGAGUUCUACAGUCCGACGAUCCGCUUGGAUGAGGCGGGUGUUACUGAUGAAGUGCUAGAUUCUGCCAUGCAAGCCUUCCUUCUGGAGGUCAUUGUUAAACAUGGGGAGCCGGCACCUUAUUUAUGUAAUAAAGAUCCUUUUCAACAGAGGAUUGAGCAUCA	0.139
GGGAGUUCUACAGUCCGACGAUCCUUAAUGAUAUUUUGAGUAAAGGAAGCAAGCUAAAAUGUCUGCUUUUGGUACAACACGCAUUAAUAAAAGGUUAAGUUUUGUUUUCCACUGAAGUACUAUUUAACAUCUCAGAAAAAAACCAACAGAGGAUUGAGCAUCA	0.114

Set 2
Target: CCNE2, cyclin fold, Cln2 fusion (human)
Technique: yeast growth competition, sequencing
Matrix: yeast
Notes: strong parent motif
Reference: not given
Direction: higher = stronger binding
Parent: RBL2 docking peptide (human); STTRRRLFVENDS
Substitution	normalised enrichment score
R4S	0.52
T3A	5.62
L7G	-0.629
F8D	0.503
R6S	0.555
E10N	2.8
R4A	2.05
F8N	0.25
V9F	4.81
R6I	1.8
S1W	2.62
F8I	0.6
V9C	4.67
E10W	1.15
L7E	0.34
V9Y	3.55
S1N	4.69

Set 3
Target: Interferon regulatory factor 7, full length, phosphomimetic (IRF7, Homo sapiens, UniProt Q92985, residues 1-503, S471D/S472D/S475D/S476D/S477D/S483D/S484D/S487D)
Technique: protein-binding microarray
Form: double-stranded DNA, one strand shown
Matrix: in vitro
Tested at: 2200 nM top
Notes: 60-bp whole probe
Together with: salmon DNA 0.4 mg/ml
Reference: random background probes
Direction: higher = stronger binding
Constant ends, left off below: GCCTAGCAC … GTCTTGATTCGCTTGACGCTGCTG
Construct (chain): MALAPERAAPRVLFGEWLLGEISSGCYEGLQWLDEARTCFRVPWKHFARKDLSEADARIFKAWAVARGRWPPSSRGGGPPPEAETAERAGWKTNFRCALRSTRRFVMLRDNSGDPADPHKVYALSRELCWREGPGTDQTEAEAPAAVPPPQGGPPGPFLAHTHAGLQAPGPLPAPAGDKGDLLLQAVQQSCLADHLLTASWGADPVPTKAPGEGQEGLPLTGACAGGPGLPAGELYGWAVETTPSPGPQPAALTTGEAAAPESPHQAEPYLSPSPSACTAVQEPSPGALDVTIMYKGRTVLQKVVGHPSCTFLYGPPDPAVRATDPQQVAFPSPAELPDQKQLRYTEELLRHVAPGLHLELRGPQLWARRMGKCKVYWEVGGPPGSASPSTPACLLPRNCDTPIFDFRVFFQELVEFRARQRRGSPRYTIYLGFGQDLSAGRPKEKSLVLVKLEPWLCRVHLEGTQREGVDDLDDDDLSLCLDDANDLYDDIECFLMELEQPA
Strand	fitted relative affinity [z-score]
TTAGAACTGAGTCTCGGTTAGTGCTAG	0.0504
TTTCTGATCCATTTTGGTTTGTGCTAG	5.46
GACGAGTTCAGACTGGAGACGTGCTAG	-0.227
GACGGACTGGGGTATCGGAACGTGCTA	-0.773
GACGATTTCACTTTCGAGACGTGCTAG	8.07
TCAATTTTGGTTTTCCTACTGTGCTAG	2.76
TCATGTTTGAGTCTTCTACTGTGCTAG	1.21
GACGGCTTCGGTCTCGGGACGTGCTAG	-0.22
TCAATTGTCTCTGTCCCACTGTGCTAG	1.61

Set 4
Target: Histone acetyltransferase KAT6A, winged helix 1, GST fusion (KAT6A, Homo sapiens, UniProt Q92794, residues 1-85)
Technique: protein binding microarray
Form: double-stranded DNA, one strand shown
Matrix: in vitro
Tested at: not given
Notes: 8-mer, flanks averaged, mean of 2 arrays, mostly near background
Reference: not given
Direction: higher = stronger binding
Construct (chain): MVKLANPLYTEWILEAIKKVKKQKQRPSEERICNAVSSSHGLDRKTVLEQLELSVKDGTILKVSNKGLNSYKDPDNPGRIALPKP
Strand	E-score
AAAAATCT	-0.267
CAGAGGAG	-0.236
CTTAGAGC	0.0312
AACCGTCT	0.0084
ATGTGCGG	0.267
ACTAACGG	0.246
AACCGGAT	0.0664
CCCGAGAA	-0.0358
CCGTTCCA	0.179
CATGCTGA	-0.223
TGGATGAA	-0.143
GTGGCGCA	0.154
AACCCTGA	-0.06
TATGAGGA	-0.294
ATGGATGG	-0.0773
CCAATGAA	-0.227
ATTAGTGA	-0.0361
AAGAAGAT	0.0189
ATCATGGG	-0.214
GACGTATA	0.0217

Set 5
Target: Phosphate system positive regulatory protein PHO4, full length, GST-tagged (PHO4, Saccharomyces cerevisiae, UniProt P07270, residues 1-312)
Technique: competition protein-binding microarray
Form: double-stranded DNA, one strand shown
Matrix: in vitro
Tested at: 2 µM
Notes: whole 60-bp probe, lowest competitor level
Together with: Cbf1 competitor, 0.05 µM
Direction: higher = stronger binding
Residues (chain): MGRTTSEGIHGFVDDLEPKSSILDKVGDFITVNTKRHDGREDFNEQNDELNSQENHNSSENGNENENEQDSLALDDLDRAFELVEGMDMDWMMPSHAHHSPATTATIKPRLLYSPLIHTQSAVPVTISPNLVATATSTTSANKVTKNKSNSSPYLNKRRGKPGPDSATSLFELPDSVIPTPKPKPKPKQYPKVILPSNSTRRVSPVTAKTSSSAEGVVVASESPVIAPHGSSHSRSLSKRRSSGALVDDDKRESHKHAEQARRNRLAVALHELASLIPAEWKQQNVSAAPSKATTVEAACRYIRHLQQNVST
Strand	fluorescence intensity [a.u.]
CAAATGCCATGATTGCACGTGCAAAGTTTTGAGAAGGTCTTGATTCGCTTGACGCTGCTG	17300
AGTTTCAATATCTGTCCCGTGGAAGTTATATTCGCTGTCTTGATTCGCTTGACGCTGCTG	5940
CCAAAAGCGTCATTCCACGTGGACCCGCTTAGTTTAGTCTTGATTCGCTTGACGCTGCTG	16000
GACACCACTGACTTAACCGTGGGTATATTATATAAGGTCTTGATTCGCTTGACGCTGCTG	6840
CGTCCTAGTGATTGTACGGTGGGTGCCATGAGGAAGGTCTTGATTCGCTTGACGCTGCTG	7630
GTCTCTAACCATGATACCGTGACTCGACTACATCCGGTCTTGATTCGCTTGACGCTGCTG	5680
AGGTTTACACAATCGCACGTGATGGTATATTTGCCAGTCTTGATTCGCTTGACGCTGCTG	15700
AAAAATGTATACAGATCAGTCTGTATATAAATCATGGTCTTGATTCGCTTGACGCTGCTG	3760
AGACCAGATGGGGTCCACGTTATCAACGTTGGTAAGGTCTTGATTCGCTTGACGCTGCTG	9330
AAAGCGGTAATTTGAGTGGTGGGTGCAGATATCTATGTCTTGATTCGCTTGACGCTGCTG	5430
AACTGCCAATACCGTCACGTTATGGAAGGTGAAGTGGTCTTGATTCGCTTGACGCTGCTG	7670
TTCTAAATCTGCAATAACGTGGCAAGTATTCTGATCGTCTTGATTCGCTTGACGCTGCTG	9120
ATCAGTAGACATGGACACGTGCCAGAAGTCATCAAAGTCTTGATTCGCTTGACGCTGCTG	17400
AAAGCGGTAATTTGTCACATGACTTCACATATCTATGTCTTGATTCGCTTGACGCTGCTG	7030
GTCTTGTCTCATTTTCACGTGATATTCCCCACTTCAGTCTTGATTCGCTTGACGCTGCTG	12000

Set 6
Target: Ras GTPase-activating protein-binding protein 1, full length (G3BP1, Homo sapiens, UniProt Q13283)
UniProt Q13283, sequence (whole entry, looked up): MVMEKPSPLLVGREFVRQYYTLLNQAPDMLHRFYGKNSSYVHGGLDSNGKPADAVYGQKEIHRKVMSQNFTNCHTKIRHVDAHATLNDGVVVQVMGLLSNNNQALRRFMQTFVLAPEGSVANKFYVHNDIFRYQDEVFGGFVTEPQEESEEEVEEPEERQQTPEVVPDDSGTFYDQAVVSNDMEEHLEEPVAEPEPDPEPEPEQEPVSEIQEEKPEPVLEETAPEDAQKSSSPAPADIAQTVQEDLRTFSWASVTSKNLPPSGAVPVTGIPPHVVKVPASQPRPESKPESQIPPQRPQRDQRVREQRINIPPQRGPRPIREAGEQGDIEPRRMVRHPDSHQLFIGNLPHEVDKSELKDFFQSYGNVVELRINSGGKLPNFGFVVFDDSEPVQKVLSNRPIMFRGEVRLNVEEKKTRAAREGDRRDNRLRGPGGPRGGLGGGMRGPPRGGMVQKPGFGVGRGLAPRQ
Technique: RNA Bind-n-Seq
Form: RNA
Matrix: in vitro
Tested at: 200 nM
Notes: whole 134-nt RNA, ends assumed
Together with: 150 mM LiCl
Reference: input library
Direction: higher = stronger binding
Each molecule: 7-deaza-guanosine replaces G
Strand	log2 enrichment
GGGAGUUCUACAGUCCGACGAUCACCAUGCAGGUGGGCAUUUUUGGGAAGUGGGGCAAGGGGGGGAUAGGGAGGGGGGUAACACUUUGGGAACAGGUGGUCCCAGGUCGUUUCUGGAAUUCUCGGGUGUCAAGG	0.2
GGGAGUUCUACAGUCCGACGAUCAAGUCCUGUGCUACACAUCGUAUGUACCGAAUCGGGCCCCGGGGCCCCGGCCCCGGAAAGUAUUAUGUUACGCCGUUCGGAUCUGCACUUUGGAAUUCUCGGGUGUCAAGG	-0.92
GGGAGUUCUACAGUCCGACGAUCAAGUCCUGUGCUACACAUCGUAUGUACCGAAUCAAACCCAAAUUUAAAUUUUUAAAAAAGUAUUAUGUUACGCCGUUCGGAUCUGCACUUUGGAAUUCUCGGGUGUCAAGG	-0.0362
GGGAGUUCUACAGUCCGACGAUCCCUGUGCUACACAUCGUAUGUACCGAAUCAAACCCCCCCAAAUUUUUUUAAAUUUUUAAAAAAGUAUUAUGUUACGCCGUUCGGAUCUGCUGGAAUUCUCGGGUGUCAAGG	1.48
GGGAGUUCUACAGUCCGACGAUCGCAGGAAGUAAAAACAAAUGGAAAUGCUAAAGAUAGUGGCAGGGGUGGGGGUUGCUAAGGAAAGGGUGGGAUGGGAGUGGGUAAAGAGUUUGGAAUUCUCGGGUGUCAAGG	0.405
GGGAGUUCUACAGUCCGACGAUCACCAUGCAGGUGGGCAUCUUUGGGAAGUGGGGCAAGGGGGGGAUAGGGAGGGGGGUAACACUUUGGGAACAGGUGGUCCUAGGUCGUUUCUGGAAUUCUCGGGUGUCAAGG	0.0114
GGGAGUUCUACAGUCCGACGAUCUCCUGUGCUACACAUCGUAUGUACCGAAUCGGGGUUUUUUGGUUUUUUGGGGUUUUUUGGAAAGUAUUAUGUUACGCCGUUCGGAUCUGCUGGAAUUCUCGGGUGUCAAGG	0.571
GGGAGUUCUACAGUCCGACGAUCUGGCCUUGGUGGCAUGCGGGGAGGAAGAGGUGGCCUCAUGGAUCGUGGUGGUCCCGGUGGAAUGUUCAGAGGUGGCCGUGGUGGAGACAGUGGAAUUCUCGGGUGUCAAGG	0.562
